Results gathered from unrelated publications.
A part holds a random share of what one study measured.

Series 1
Target: Max dimerization protein 1, bHLH-zipper, MAX partner unstated (MXD1, Homo sapiens, UniProt Q05195, residues 56-136)
Method: protein-binding microarray
Form: double-stranded DNA, one strand shown
Matrix: in vitro
Tested at: not given
Notes: k-mer, scored over probes, only values ≥0.25
Reading: higher = stronger binding
Construct (chain): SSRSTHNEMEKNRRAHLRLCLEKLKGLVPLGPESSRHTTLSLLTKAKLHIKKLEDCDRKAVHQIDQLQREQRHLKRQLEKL
Strand | E-score
GAACACGC | 0.388
CACGTTAG | 0.256
CATGTTGA | 0.384
ATAATGTG | 0.271
CTCGTGAA | 0.268
CCATGCGA | 0.307
CGCCCCGC | 0.257
CACGCTTC | 0.336
CCCCCCCC | 0.357
CGTGGCCC | 0.312
CATGGTGC | 0.358
CGGCCCCC | 0.289
AGCACGCA | 0.285
GGGGAGCA | 0.295
AAAACGTG | 0.437
CATGTGCC | 0.447
ATATCACG | 0.287

Series 2
Target: Histone acetyltransferase KAT6A, both winged helices, GST fusion (KAT6A, Homo sapiens, UniProt Q92794, residues 1-181)
Method: protein binding microarray
Form: double-stranded DNA, one strand shown
Matrix: in vitro
Tested at: not given
Notes: 8-mer, flanks averaged, mean of 2 arrays, mostly near background
Relative to: not given
Reading: higher = stronger binding
Target sequence (chain): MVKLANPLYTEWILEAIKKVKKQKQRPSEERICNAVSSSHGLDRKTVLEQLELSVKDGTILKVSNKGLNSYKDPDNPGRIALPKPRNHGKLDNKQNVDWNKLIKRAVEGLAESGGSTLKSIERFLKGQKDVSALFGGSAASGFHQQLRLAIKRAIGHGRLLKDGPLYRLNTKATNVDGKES
Strand | E-score
CGTCAGAG | -0.0946
AGGGAGCG | 0.104
CATTCATA | -0.0403
GGAATTAA | -0.052
CTCGGGCA | 0.0966
AGCAGTGA | -0.0656
AAGGAGAA | -0.158
CAACTCCC | -0.177
CCCCAAAC | -0.13
TTAGATAA | -0.0248
CGTCATGC | 0.162
AAGGCCCT | -0.0501
AAATTTAT | -0.184
CTCCTGGA | -0.121
AGCACCTG | -0.299
AGAGAGAT | -0.181
CCACTAGG | -0.191

Series 3
Target: Fragile X messenger ribonucleoprotein 1, C-terminal low-complexity region (Fmr1, Mus musculus, UniProt P35922)
Method: RNA Bind-n-Seq
Form: RNA
Matrix: in vitro
Tested at: 200 nM
Notes: whole 134-nt RNA, ends assumed
Together with: 150 mM LiCl
Relative to: input library
Reading: higher = stronger binding
Each molecule: 7-deaza-guanosine replaces G
Shared flanks, not repeated: GGGAGUUCUACAGUCCGACGAUC … UGGAAUUCUCGGGUGUCAAGG
Strand | log2 enrichment
ACCAUGCAGGUGAGCAUCUUUGGGAAGUGGGGCAAGGGGGGGAUAGGGAGGGGGGUAACACUUUGGGAACAGGUGGUCCCAGGUCGUUUC | 1.45
CAAGUCCUGUGCUACACAUCGUAUGUACCGAAUCGGGGUUUGGGUUUGGGUUUGGGAAAGUAUUAUGUUACGCCGUUCGGAUCUGCACUU | -1.58
CCUCAAGUCCUGUGCUACACAUCGUAUGUACCGAAUCGGGGAGGAGGAGGGGAAAGUAUUAUGUUACGCCGUUCGGAUCUGCACUUCCAG | -0.0335
CAAGUCCUGUGCUACACAUCGUAUGUACCGAAUCGGAAAAAGGUUUUUUUGGUGGAAAGUAUUAUGUUACGCCGUUCGGAUCUGCACUUC | -2.12
CCUGUGCUACACAUCGUAUGUACCGAAUCGGGCCCCCCGGGCCCCCCGGGGCCCCCCGGGGAAAGUAUUAUGUUACGCCGUUCGGAUCUG | -2.3
UGGGAGGUGGAUUUUGUUUAUUUUUUUAGCUCAUUUCCAGGGGUGGGAAUUUUUUUUUAAUAUGUGUUAUGAAUAAAGUUGUUUUUGAAA | -0.184
GUCCUGUGCUACACAUCGUAUGUACCGAAUCGGGGAAAGGGGUGGGGAAAAAAAGGGGAAAGUAUUAUGUUACGCCGUUCGGAUCUGCAC | -0.289
UAGUGAAAUUUCUAAUAUAUAUAUUUUUUUCUUUAGGAGAAGAAACGAAUGCAUCAGAUCAACAGAAUGAACCCCAGUUAGGCCUGAAAG | -2.53
UCCUGUGCUACACAUCGUAUGUACCGAAUCGGGGAAAGGGGUUUUUUUGGGGUUUGGGGAAAGUAUUAUGUUACGCCGUUCGGAUCUGCA | -1.11
GGUAUUCUGCAAGUACUGUAGAUGUUAUAGAAAUGAUGGAGGAUGAUAAAGUUGAUCUGAAUUUGAUUGUUGCCCUCAUCCGAUACAUUG | -1.13
GCAGGAAGUAAAAACAAAUGGAAAUGCUUCGGAUAGUGGCAGGGGUGGGGGUUGCUAAGGAAAGGGUGGGAUGGGAGUGGGGAAAGAGUU | 1.2

Series 4
Target: RNA binding protein fox-1 homolog 2, RRM domain, GST-SBP tag (RBFOX2, Homo sapiens, UniProt O43251-10, residues 100-194)
Method: RNA Bind-n-Seq
Form: RNA
Matrix: in vitro
Tested at: 365 nM
Notes: natural RNA segment, single round, ends assumed
Relative to: no-protein control
Reading: higher = stronger binding
Shared flanks, not repeated: GGGAGUUCUACAGUCCGACGAUC … UGGAAUUCUCGGGUGCCAA
Construct (chain): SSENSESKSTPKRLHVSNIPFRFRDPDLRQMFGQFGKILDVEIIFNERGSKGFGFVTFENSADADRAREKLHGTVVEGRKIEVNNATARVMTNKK
Strand | RBNS enrichment (R)
CAUGCUUUCUGUUAUUAUCUUUCUUGAUACUUUCCAAAUUCUCUGAUUCUAGAAAAAGGAAUCAUUCUCCCCUCCCUCCCACCACAUAGAAUCAACAUAUGGUAGGGAUU | 0.685
CGGGUCUCUUGCCUUGAGAUGGGGGGAGUCCUAGGAAGAAGAGUGGUCUGGUCCUGUUUCUGCAGACUGCUUGGCUCAGGGCUUCCUGAGAGACUUGAGAGGAACUGUCC | 0.855
UGACCAAAAGCUGUCAAGUCCUUAAUGUUUAGAAACUCCUUAAAAUGUAUAGUAUUUUAGAACAACAACAACAAAACUCAAUAAACAGUUGAUCUUGUGUGUUUGACAGU | 0.597
AUUGCCUCUUUUUGUACAGAACUUUUGAGUGUGAAAUGAAAAUUAAAGUUUGGUACAUACACAGUUUAAAAUCAUGUUUGUAUAUGAUGCAUAGGCAAAAUGGAUGGCCC | 1.2
CAUUUUUUCCUCUAAUUCAUAACUUACUGAAUUUUUAUGGAAAAUGUCAGCAUCUGUUCUAUCAGUAAGAAAGAGCAGGCAGGACACAUUAAAGGUUCUGUGUCAGCUAU | 0.276
AAGCAGCCCCCAGCGAGGGUCUCCUUCGCCUUCAACCUCCUAGUGUCUGUUAGCAUCUUCCUUUUCAUGGGGGGAGGGAAGAUAAAGUGAAUUGCCCAGAGCUGCCUUUU | 0.691
AUGGGACCAGGGCAGUCACCAGUGCCGAAGAGCGGUCCCCUUCGUGGAUAUCUGCUUCCAUGACAGAACCUCUUGAGCACGCAGAGGGAGUGGCCACACCGCCUGUUGGA | 7.55
GUAAGGGUCCUCUGUUUUUGAUUCACCCAAAAGUCUGCAAACCCCCAGCAUCUCUGCUCUGGCCAGCCCUGAUCUGAAGCCUGUGUCUACUAAGAGGGAUGCCCAGUGCC | 0.447
AAAAUGACAUCUAAGCUUUACCUGGUCACCAUGUGAUGUGAUCAGAUGCUUGAAAUUUAACACUUUUCACUUGGUUCUUAUACUGAAUGCCGACUCUGCUCUGUGUUAGA | 0.506
CAGAGCUCAAAGCCCAGGUUCAGGGUAAGAAUUUGUAAUACAGAAGAAGAAAGACUCCCUUCACUUUGCCCUUAACACUUGCCUCUGUUAUCUAAGCUUCGUUAAUAGAU | 0.345
AAGUUGAUUGUAGUUGUCCCGUCCUGUGGGCUGGCUCACUGUCCUGUGUCCUUUGCGUUCCUCGUUUAAGCAAAAGAAGUUAGUAGCUAAUUCUAUCACGAAUGUUCUUG | 0.407
UGGGCCUUGGGCCAUGCAGUAUCAGCUUGACCUUGCAAGGUCAAGCUGAGGAGACUAAGUUAGCCAUGUGGGCAGUGAAGCAUGCCAAUGUGAUCAAUCCCUAGUAAAAG | 1.07

Series 5
Target: Interferon regulatory factor 5, full length, phosphomimetic (IRF5, Homo sapiens, UniProt Q13568-2, residues 1-514, K96S/S451D/S453D/S456D/S462D)
Method: protein-binding microarray
Form: double-stranded DNA, one strand shown
Matrix: in vitro
Tested at: 250 nM
Notes: 60-bp whole probe
Together with: salmon DNA 0.4 mg/ml
Relative to: random background probes
Reading: higher = stronger binding
Shared flanks, not repeated: GCCTAGCAC … GTCTTGATTCGCTTGACGCTGCTG
Strand | log fluorescence
TTCTTACTTTGGGATTCTGAGTGCTAG | 0.187 z-score
TTAGGTTGCGACACTGGGTTAGTGCTA | -0.104 z-score
TCATTTATTTATTTTTAACTGTGCTAG | 0.982 z-score
GACGATTTCGGGACGGGAGACGTGCTA | 1.76 z-score
GACGATTTCAGTTCCGAGATGTGCTAG | 1.44 z-score
TCAAGTTTGTAAATCTTACTGTGCTAG | 0.186 z-score
CATTTATTTACTCTCTACATGTGCTAG | 0.985 z-score
GACGGATTGGGACTGGGGACGTGCTAG | -0.427 z-score
TCATTTCTAATATTCTGACTGTGCTAG | 1.04 z-score
GACGATTTCAGCTCCGAGACGTGCTAG | 0.368 z-score
CACGGACTGGGGTTTCGGGACGTGCTA | 1.13 z-score
TCATGTTTTAAATTCTAACTGTGCTAG | 0.553 z-score
GACGATCTCAGCTTCGAGACGTGCTAG | -0.149 z-score
TCACTTCTGCATTACAGACTGTGCTAG | 0.346 z-score
TCACCCCTTGCTTTCCAACTGTGCTAG | 0.128 z-score
TCAGTCCTCCTGACTGGGACTGTGCTA | -0.484 z-score
TTAGACCTGGGGTATCGATTAGTGCTA | 1.85 z-score
AGTCTCTTCTGGGACTCATGGTGCTAG | 0.0672 z-score
AACGGTATCGGTTTCGGGACGTGCTAG | 8.77 z-score
TTAGGTTTCCTTATCCCTTAGTGCTAG | 1.01 z-score
TTGGAACTGAGTTTCGATTAGTGCTAG | 9.06 z-score
CTTTCTTTATGCACTCTTTACGTGCTA | 1.99 z-score
CTAGGTCTCGGTTTCGGTTAGTGCTAG | 8.64 z-score
CCAGTTTTGTGTGTGTGTTTGTGCTAG | 0.707 z-score
TTAGGTCTCCTTTTCCTGTAGTGCTAG | 0.468 z-score

Repeated from above (series 2):
Strand | E-score
CGTCAGAG | -0.0946
AGGGAGCG | 0.104
CATTCATA | -0.0403
GGAATTAA | -0.052
